Published values collected from several papers.
Lines come from different studies, so protocols differ.
Organism: Severe acute respiratory syndrome coronavirus 2
Effect on: viral replication

SMILES | assay | test system | conditions | IC50 [µM]
O=C(O[C@@H]1[C@@H](O)[C@H](Oc2cc(O)c3c(c2)O[C@H](c2ccccc2)CC3=O)O[C@@H]2COC(=O)c3cc(O)c(O)c(O)c3-c3c(cc(O)c(O)c3O)C(=O)O[C@@H]12)c1cc(O)c(O)c(O)c1 | inhibitor | Vero C1008 | 24 h | 4.9
CC(=O)NCCCCCCCCCC1O[C@@H]2C[C@H]3[C@@H]4CCC5=CC(=O)C=C[C@]5(C)[C@H]4[C@@H](O)C[C@]3(C)[C@]2(C(=O)CO)O1 (some centres unmarked) | – | VeroE6/TMPRSS2 | – | 5.7
CCCCCc1cc2c(c(O)c1C(=O)O)[C@H]1C=C(C)CC[C@@H]1C(C)(C)O2 | imaging | Vero | – | 13.2
Cc1ccc(N2CCN(C)CC2)cc1C(=O)NC1(c2ccc3c4c(cccc24)CC3)CC1 | – | Vero C1008 | – | 0.457
C[C@]12C=CC(=O)C=C1CC[C@@H]1[C@@H]2[C@@H](O)C[C@@]2(C)[C@H]1C[C@H]1OC(c3ccccc3Cl)O[C@]12C(=O)CO (some centres unmarked) | – | VeroE6/TMPRSS2 | – | 8.7
CNCCN(C)c1ccc(Nc2cc(NC3CC3)n3ncc(C#N)c3n2)cc1NC(C)=O | inhibitor | HAE | – | 0.2 to 0.3
CCCCCCCCCC1O[C@@H]2C[C@H]3[C@@H]4CCC5=CC(=O)C=C[C@]5(C)[C@H]4[C@@H](O)C[C@]3(C)[C@]2(C(=O)CO)O1 (some centres unmarked) | inhibitor | Calu-3 | – | 8.9
C#CCCCOP(=O)(O)Oc1c2c(c(OP(=O)(O)OCCCC#C)c3c1C1CC3c3cc4c(cc31)C1CC4c3ccccc31)C1CC2c2cc3c(cc21)C1CC3c2ccccc21 | – | Caco-2 | – | 48.9
CCCC/C=C/C(=O)N[C@@H](Cc1csc2ccccc12)C(=O)N[C@H]1COC(=O)[C@@H]2C[C@@H](C)CN2C(=O)[C@H](C)NC(=O)[C@@H]2CCCCN2C(=O)[C@@H]2CCCN2C1=O | inhibitor, luciferase | – | 24 h, replicon | 11.4
C[C@]12C=CC(=O)C=C1CC[C@@H]1[C@@H]2[C@@H](O)C[C@@]2(C)[C@H]1C[C@H]1OC(c3ccc(Cl)cc3)O[C@]12C(=O)CO (some centres unmarked) | inhibitor | VeroE6/TMPRSS2 | 24 h | 8.3
COc1cccc2c1C(=O)c1c(O)c3c(c(O)c1C2=O)C[C@@](O)(C(=O)CO)C[C@@H]3O[C@H]1C[C@H](N)[C@@H](O)[C@H](C)O1 | inhibitor | Calu-3 | 40 h | 1.08
CCc1ccc(COP(=O)(O)Oc2c3c(c(OP(=O)(O)OCc4ccc(CC)cc4)c4c2C2CC4c4cc5c(cc42)C2CC5c4ccccc42)C2CC3c3cc4c(cc32)C2CC4c3ccccc32)cc1 | – | Caco-2 | – | 0.6
Cc1ccc(N2CC3CC(C2)N3C)cc1C(=O)NC1(c2ccc3c4c(cccc24)C(=O)N3C)CC1 | – | Vero C1008 | – | 0.107
C=CCCCOP(=O)(O)Oc1c2c(c(OP(=O)(O)OCCCC=C)c3c1C1CC3c3cc4c(cc31)C1CC4c3ccccc31)C1CC2c2cc3c(cc21)C1CC3c2ccccc21 | – | Caco-2 | – | 19.9
CCCCCCC1O[C@@H]2C[C@H]3[C@@H]4CCC5=CC(=O)C=C[C@]5(C)[C@H]4[C@@H](O)C[C@]3(C)[C@]2(C(=O)CO)O1 (some centres unmarked) | – | VeroE6/TMPRSS2 | – | 5.5
O=P(O)(OCCCc1ccccc1)Oc1c2c(c(OP(=O)(O)OCCCc3ccccc3)c3c1C1CC3c3cc4c(cc31)C1CC4c3ccccc31)C1CC2c2cc3c(cc21)C1CC3c2ccccc21 | – | Caco-2 | – | 7
CCN(CCO)CCCC(C)Nc1ccnc2cc(Cl)ccc12 (centres unmarked) | – | Vero | – | 2.8
CC(C)CCOP(=O)(O)Oc1c2c(c(OP(=O)(O)OCCC(C)C)c3c1C1CC3c3cc4c(cc31)C1CC4c3ccccc31)C1CC2c2cc3c(cc21)C1CC3c2ccccc21 | – | Caco-2 | – | 8.2
CC(=O)OCCCCCCCCCC1O[C@@H]2C[C@H]3[C@@H]4CCC5=CC(=O)C=C[C@]5(C)[C@H]4[C@@H](O)C[C@]3(C)[C@]2(C(=O)CO)O1 (some centres unmarked) | inhibitor | VeroE6/TMPRSS2 | 24 h | 6.9
O=P(O)(OCCc1ccccc1)Oc1c2c(c(OP(=O)(O)OCCc3ccccc3)c3c1C1CC3c3cc4c(cc31)C1CC4c3ccccc31)C1CC2c2cc3c(cc21)C1CC3c2ccccc21 | – | Caco-2 | – | 1.8
CCCCCCCCCCCCCCCC1O[C@@H]2C[C@H]3[C@@H]4CCC5=CC(=O)C=C[C@]5(C)[C@H]4[C@@H](O)C[C@]3(C)[C@]2(C(=O)CO)O1 (some centres unmarked) | inhibitor | VeroE6/TMPRSS2 | 24 h | 20.8
O=P(O)(OCc1ccc(-c2ccccc2)cc1)Oc1c2c(c(OP(=O)(O)OCc3ccc(-c4ccccc4)cc3)c3c1C1CC3c3cc4c(cc31)C1CC4c3ccccc31)C1CC2c2cc3c(cc21)C1CC3c2ccccc21 | – | Caco-2 | – | 0.2
CC(=O)[C@]1(O)Cc2c(O)c3c(c(O)c2[C@@H](O[C@H]2C[C@H](N)[C@H](O)[C@H](C)O2)C1)C(=O)c1ccccc1C3=O | inhibitor | Calu-3 | 40 h | 0.061

Repeated from above:
SMILES | assay | test system | conditions | IC50 [µM]
Cc1ccc(N2CCN(C)CC2)cc1C(=O)NC1(c2ccc3c4c(cccc24)CC3)CC1 | – | Vero C1008 | – | 0.457
CCCCCc1cc2c(c(O)c1C(=O)O)[C@H]1C=C(C)CC[C@@H]1C(C)(C)O2 | imaging | Vero | – | 13.2
CCc1ccc(COP(=O)(O)Oc2c3c(c(OP(=O)(O)OCc4ccc(CC)cc4)c4c2C2CC4c4cc5c(cc42)C2CC5c4ccccc42)C2CC3c3cc4c(cc32)C2CC4c3ccccc32)cc1 | – | Caco-2 | – | 0.6
